{"data": "Measurements gathered from unrelated publications", "CDK1 with cyclin B": "Cyclin-dependent kinase 1, with cyclin B (CDK1, Homo sapiens, UniProt P06493)", "CDK1": "Cyclin-dependent kinase 1 (CDK1, Homo sapiens, UniProt P06493)", "CDK1 with cyclin A": "Cyclin-dependent kinase 1, with cyclin A (CDK1, Homo sapiens, UniProt P06493)", "note": "Lines come from different studies, so protocols differ. “And” joins repeats or separate records; there may be more than shown.", "UniProt P06493, sequence (whole entry, looked up)": "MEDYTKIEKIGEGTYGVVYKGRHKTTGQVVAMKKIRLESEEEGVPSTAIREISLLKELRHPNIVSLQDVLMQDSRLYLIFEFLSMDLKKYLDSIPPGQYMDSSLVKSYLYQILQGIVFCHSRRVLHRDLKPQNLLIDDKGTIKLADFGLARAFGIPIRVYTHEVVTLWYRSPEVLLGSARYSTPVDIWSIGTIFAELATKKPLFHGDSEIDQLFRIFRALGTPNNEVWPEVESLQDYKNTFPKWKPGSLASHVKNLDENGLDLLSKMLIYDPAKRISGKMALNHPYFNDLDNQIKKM"}
{"SMILES": "CN1CCN(Cc2ccc(-c3ccc(CO[C@H]4CCC[C@@H]4NC(=O)c4cc(-c5cnn(C)c5)cnc4N)cc3)cc2)CC1", "target": "CDK1 with cyclin B", "test": "enzyme activity, inhibitor", "setting": "0.1 µM", "measurement": "inhibition", "result": "1%"}
{"SMILES": "O=c1c(-c2ccc(Cl)c(CN3CCOCC3)c2)coc2cc(O)ccc12", "target": "CDK1 with cyclin B", "test": "enzyme activity, inhibitor", "setting": "1 µM", "measurement": "remaining activity", "result": "96%"}
{"SMILES": "NC(=O)C[C@H]1CCc2sc3ncnc(O[C@H]4CC[C@H](N5CCOCC5)CC4)c3c21", "target": "Cyclin-dependent kinase 1, with cyclin E (CDK1, Homo sapiens, UniProt P06493)", "test": "enzyme activity, inhibitor", "setting": "10 µM", "measurement": "inhibition", "result": "11%"}
{"SMILES": "O=C=[N][Ru-4]123([n]4c5ccc(O)cc5c5c6c(c7cc(F)c[n+]1c7c54)C(=O)NC6=O)[S+]1CC[S+]2CC[S+]3CC1 (stereo not shown)", "target": "CDK1 with cyclin B", "test": "enzyme activity", "setting": "100 nM, human enzyme, added: 10 µM ATP", "how to read": "baseline: untreated", "measurement": "remaining activity", "result": "120%"}
{"SMILES": "O=C(Cc1ccc(OCc2ccccc2)cc1)NC1(C(=O)O)CCN(C(=O)c2ccc(-c3cccc(Cl)c3)cc2)CC1", "target": "CDK1 with cyclin B", "test": "enzyme activity, inhibitor", "setting": "10 µM", "measurement": "activity vs control", "result": "115%"}
{"SMILES": "Cc1cccc(O[C@H]2CCC[C@@H](C(C)CNCc3ccncc3)C2)c1 (relative stereo)", "target": "CDK1", "test": "enzyme activity, inhibitor", "setting": "10 µM", "measurement": "inhibition", "result": "-4%"}
{"SMILES": "NC(=O)[C@@H](O)C[C@H]1CCc2sc3ncnc(O[C@H]4CC[C@H](N5CCOCC5)CC4)c3c21", "target": "CDK1 with cyclin A", "test": "enzyme activity, inhibitor", "setting": "10 µM", "measurement": "inhibition", "result": "11%"}
{"SMILES": "COCC12C(=O)NC3C4(C(OC)CC1O)C1CC5(O)C(OC)C(O)C(OC(C)=O)(C1C5OC(=O)c1ccccc1)C3(O)C(OC)C24 (stereo not shown)", "target": "CDK1 with cyclin A", "test": "kinase activity, inhibitor, ProQinase kinase profiling", "setting": "25 µM", "how to read": "baseline: control", "measurement": "remaining activity", "result": "71% and 77%"}
{"SMILES": "Cc1nn(C)c(C)c1/C=C/C(=O)N1CCC[C@H](Cc2ccc(Nc3ccccn3)nn2)C1", "target": "CDK1", "test": "enzyme activity, inhibitor, ADP detection", "setting": "1 µM", "measurement": "activity vs control", "result": "93%"}
{"SMILES": "CN1C[C@@H](c2c[nH]c3cc(Br)ccc23)NC[C@@H]1c1c[nH]c2cc(Br)ccc12", "target": "Cyclin-dependent kinase 1, with cyclin A2 (CDK1, Homo sapiens, UniProt P06493)", "test": "enzyme activity, inhibitor", "setting": "10 µM", "measurement": "remaining activity", "result": "106%"}
{"SMILES": "CCn1cc(C(=O)O)c(=O)c2c(N)c(F)c(NC3CCCCC3)cc21", "target": "Cyclin-dependent kinase 1, with cyclin E1 (CDK1, Homo sapiens, UniProt P06493)", "test": "kinase activity", "setting": "0.1 µM, added: ATP at Km", "measurement": "inhibition", "result": "11.7%"}
{"SMILES": "C=CC(=O)Nc1cccc(-c2cnc3[nH]cc(C(=O)NC(C)(C)C)c3n2)c1", "target": "CDK1", "test": "kinase activity", "setting": "0.1 µM", "measurement": "inhibition", "result": "39% and 36%"}
{"SMILES": "COc1ccc(C(=O)/C=C/c2ccccc2-c2c[nH]c3ccc(C#N)cc23)c(O)c1", "target": "CDK1 with cyclin B", "test": "enzyme activity, inhibitor", "setting": "20 µM", "measurement": "inhibition", "result": "5%"}
{"SMILES": "N[C@H]1CC[C@H](Nc2nccc(-c3cccnc3Oc3ccc(NC(=O)NC4CC4)c4ccccc34)n2)CC1", "target": "Cyclin-dependent kinase 1, with cyclin B1 (CDK1, Homo sapiens, UniProt P06493)", "test": "kinobead competition pulldown, measured: CCNB1", "test system": "HEK293/HCT116 lysate mixture", "setting": "10 µM, 1 h, 4 °C", "how to read": "lower = stronger competition", "measurement": "log2 LFQ intensity", "result": "25.9 and 25.8"}
{"SMILES": "Cc1cc(C)nc(NS(=O)(=O)c2ccc(NC(=O)CCCOc3ccc(C(C)(C)C)cc3)cc2)n1", "target": "CDK1", "test": "enzyme activity, inhibitor, ADP detection", "setting": "10 µM", "measurement": "inhibition", "result": "61.5%"}
{"SMILES": "COc1c(OCCCN2CCOCC2)ccc2c1N=C(NC(=O)c1cnc(N)nc1)N1CCN=C21", "target": "CDK1 with cyclin B", "test": "kinase activity, inhibitor", "setting": "1 µM", "how to read": "baseline: untreated control", "measurement": "remaining activity", "result": "103%"}
{"SMILES": "Cc1cc(C)nc(Nc2ccc([C@@H]3CCCN(C(=O)/C=C/c4c(C)nn(C)c4C)C3)nc2)n1", "target": "CDK1", "test": "enzyme activity, inhibitor, ADP detection", "setting": "1 µM", "measurement": "activity vs control", "result": "99%"}
{"SMILES": "Nc1ncc(-c2cc(-c3cnn(CC(F)(F)F)c3)ncc2F)nc1C(=O)NC1CNCC(F)C1 (stereo not shown)", "target": "CDK1 with cyclin B", "test": "enzyme activity", "setting": "1 µM", "how to read": "baseline: DMSO control", "measurement": "remaining activity", "result": "87.4%"}
{"SMILES": "CNC(=O)C[C@H](Cc1ccc(C#N)cc1)NC(=O)c1cc(-c2ccc(CN[C@H](C)c3ccc(C)cc3)o2)ccc1Cl", "target": "CDK1 with cyclin B", "test": "enzyme activity, inhibitor", "setting": "1 µM", "measurement": "activity vs control", "result": "105%"}
{"note": "Repeated from above:"}
{"SMILES": "COc1c(OCCCN2CCOCC2)ccc2c1N=C(NC(=O)c1cnc(N)nc1)N1CCN=C21", "target": "CDK1 with cyclin B", "test": "kinase activity, inhibitor", "setting": "1 µM", "how to read": "baseline: untreated control", "measurement": "remaining activity", "result": "103%"}
